Results gathered from unrelated publications.
Compare with care: the assays were run in different laboratories. Several values in a cell are separate wells, animals, samples, runs or records.

Cn1c(-c2ccc(C(N)=O)cc2F)nnc1C(C)(C)Oc1c(F)cc(Cl)cc1F  general disorder TEAE (human; oral, 60 mg, single ascending dose, incl. administration site): 33.3%
CC(C)c1nc(N(C)S(C)(=O)=O)nc(-c2ccc(F)cc2)c1/C=C/[C@@H](O)C[C@@H](O)CC(=O)O  incidence of Polyuria (healthy human subjects; oral, dose not given, study CL-0537 safety set): 0%
Cn1nccc1[C@]1(CNC(=O)c2ccc(F)c(F)c2-c2ccc(C(F)(F)F)cc2)NC(=O)NC1=O  dose-normalised AUC (dog; intravenous, 0.3 mg/kg): 88 kg·h/L
CCS(=O)(=O)Nc1ccc(Oc2ccc(F)cc2F)c(-c2cn(C)c(=O)c3[nH]ccc23)c1  treatment-emergent adverse events (fatal fungal pneumonia; human, relapsed/refractory AML; oral, dose not given): 5%
CN1CCN(S(=O)(=O)c2cc([N+](=O)[O-])ccc2N(CCOS(C)(=O)=O)CCOS(C)(=O)=O)CC1  hemoglobin (NOD/SCID mouse, naive, blood; intraperitoneal, 6.3 mg/kg, week 4): 158 g/L and 164 g/L and 160 g/L
CCCCCCCCCC(=O)N[C@@H](Cc1c[nH]c2ccccc12)C(=O)N[C@H](CC(N)=O)C(=O)N[C@@H](CC(=O)O)C(=O)N[C@@H]1C(=O)NCC(=O)N[C@@H](CCCN)C(=O)N[C@@H](CC(=O)O)C(=O)N[C@H](C)C(=O)N[C@@H](CC(=O)O)C(=O)NCC(=O)N[C@H](CO)C(=O)N[C@@H]([C@H](C)CC(=O)O)C(=O)N[C@@H](CC(=O)c2ccccc2N)C(=O)O[C@@H]1C  peripheral volume (population PK model; human; intravenous, dose not given, two-compartment model): 2.98 L
CCCCCCCCCCCCCCCC(=O)N[C@@H](CCC(=O)NCCCC[C@H](NC(=O)[C@H](CC(=O)O)NC(=O)[C@H](CO)NC(=O)[C@@H](NC(=O)[C@H](Cc1ccccc1)NC(=O)[C@@H](NC(=O)CNC(=O)[C@H](CCC(N)=O)NC(=O)[C@H](CO)NC(=O)[C@@H](N)Cc1c[nH]cn1)[C@@H](C)O)[C@@H](C)O)C(=O)N[C@@H](CO)C(=O)N[C@@H](CCC(=O)O)C(=O)N[C@@H](Cc1ccc(O)cc1)C(=O)N[C@@H](CC(C)C)C(=O)N[C@@H](CC(=O)O)C(=O)N[C@@H](CO)C(=O)N[C@@H](CCC(=O)O)C(=O)N[C@@H](CCCNC(=N)N)C(=O)N[C@@H](C)C(=O)N[C@@H](CCCNC(=N)N)C(=O)N[C@@H](CC(=O)O)C(=O)N[C@@H](Cc1ccccc1)C(=O)N[C@H](C(=O)N[C@@H](C)C(=O)N[C@@H](Cc1c[nH]c2ccccc12)C(=O)N[C@@H](CC(C)C)C(=O)N[C@@H](CCC(=O)O)C(=O)N[C@@H](C)C(=O)NCC(=O)NCC(=O)O)C(C)C)C(=O)O  decreased appetite (human, CrCl < 20 mL/min; sc, 100 µg single dose): 0%
COc1ccc([C@@H](O)c2cc(-c3ncnc4cc(N5CCOCC5)ccc34)c(F)cc2Cl)nn1  vascular disorders incidence (patients, advanced solid tumours; oral, 400 mg twice daily, treatment-emergent, together with: avelumab; relative to: patients): 1%
Cc1cc(C)nc(Nc2ncc(C(=O)NCCc3c(C)[nH]c4ccccc34)cn2)c1  maximal hepatic bioavailability (dog liver microsomes; 1 µM): 18%
C[C@]1(CO)Cc2ncn(-c3ccc(C#N)c(Cl)c3)c2C(=O)O1  subjects with drug-related TEAEs (investigator-assessed; human, Chinese; 60 mg single dose): 0%
O=C(Nc1ccccc1)C1CCN(C(=O)Oc2cccnc2)CC1  subjects with ear discomfort (adverse event reporting; healthy women; oral, 20 mg, 7 days): 0%
COc1ncnn2ccc(-c3cnc4nc(C)n(Cc5nnc([C@@H](C)F)o5)c4c3)c12  patients with pyrexia (human; oral, dose not given, grade 5): 0%
COc1cc2c(Oc3ccc4[nH]c(C)cc4c3F)ccnc2cc1OCC1(N)CC1  Anorexia incidence (paediatric recurrent refractory sarcoma; 10 mg): 0%
C=CCNc1c(O)cc2c(O)c1C[C@@H](C)C[C@H](OC)[C@H](O)[C@@H](C)/C=C(\C)[C@H](OC(N)=O)[C@@H](OC)/C=C\C=C(/C)C(=O)N2  patients with sinus bradycardia (unresectable or metastatic STS, GIST, other; intravenous, 500 mg/m^2): 43%
CCc1ccc(CC/C=C/c2ccc3c(c2)C(=O)CC3)cc1  AST serum activity (Sprague-Dawley rat, female; oral, 30 mg/kg/day, 14 days): 124 U/L

A few entries again:
CC(C)c1nc(N(C)S(C)(=O)=O)nc(-c2ccc(F)cc2)c1/C=C/[C@@H](O)C[C@@H](O)CC(=O)O  incidence of Polyuria (healthy human subjects; oral, dose not given, study CL-0537 safety set): 0%
